{"data": "Measurements collected from several papers", "note": "Numbered parts are unrelated; each lists some results of a single study.", "chain of UniProt P46734 (whole entry, looked up)": "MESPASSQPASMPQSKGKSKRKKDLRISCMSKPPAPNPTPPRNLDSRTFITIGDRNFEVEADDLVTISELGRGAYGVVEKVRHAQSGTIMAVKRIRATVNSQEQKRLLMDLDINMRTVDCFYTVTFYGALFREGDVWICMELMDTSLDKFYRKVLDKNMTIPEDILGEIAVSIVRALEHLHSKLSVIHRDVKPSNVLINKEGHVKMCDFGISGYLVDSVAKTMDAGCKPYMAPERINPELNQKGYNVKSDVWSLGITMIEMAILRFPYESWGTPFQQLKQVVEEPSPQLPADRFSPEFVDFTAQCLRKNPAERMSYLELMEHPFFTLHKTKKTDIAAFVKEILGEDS", "chain of UniProt P07947 (whole entry, looked up)": "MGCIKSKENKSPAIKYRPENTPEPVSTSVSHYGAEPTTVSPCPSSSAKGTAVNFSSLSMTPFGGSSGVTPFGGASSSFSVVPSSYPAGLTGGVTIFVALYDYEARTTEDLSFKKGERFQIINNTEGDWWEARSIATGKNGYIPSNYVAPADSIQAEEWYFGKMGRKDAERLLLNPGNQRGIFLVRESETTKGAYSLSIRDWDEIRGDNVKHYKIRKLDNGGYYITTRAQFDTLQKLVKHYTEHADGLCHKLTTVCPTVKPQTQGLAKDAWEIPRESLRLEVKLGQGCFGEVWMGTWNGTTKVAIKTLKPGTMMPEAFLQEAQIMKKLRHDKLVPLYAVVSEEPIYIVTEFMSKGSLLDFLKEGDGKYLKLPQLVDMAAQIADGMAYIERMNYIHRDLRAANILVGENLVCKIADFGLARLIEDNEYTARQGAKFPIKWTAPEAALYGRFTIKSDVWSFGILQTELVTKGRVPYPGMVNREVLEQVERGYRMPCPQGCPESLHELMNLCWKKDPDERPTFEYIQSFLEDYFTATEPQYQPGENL", "chain of UniProt Q15835 (whole entry, looked up)": "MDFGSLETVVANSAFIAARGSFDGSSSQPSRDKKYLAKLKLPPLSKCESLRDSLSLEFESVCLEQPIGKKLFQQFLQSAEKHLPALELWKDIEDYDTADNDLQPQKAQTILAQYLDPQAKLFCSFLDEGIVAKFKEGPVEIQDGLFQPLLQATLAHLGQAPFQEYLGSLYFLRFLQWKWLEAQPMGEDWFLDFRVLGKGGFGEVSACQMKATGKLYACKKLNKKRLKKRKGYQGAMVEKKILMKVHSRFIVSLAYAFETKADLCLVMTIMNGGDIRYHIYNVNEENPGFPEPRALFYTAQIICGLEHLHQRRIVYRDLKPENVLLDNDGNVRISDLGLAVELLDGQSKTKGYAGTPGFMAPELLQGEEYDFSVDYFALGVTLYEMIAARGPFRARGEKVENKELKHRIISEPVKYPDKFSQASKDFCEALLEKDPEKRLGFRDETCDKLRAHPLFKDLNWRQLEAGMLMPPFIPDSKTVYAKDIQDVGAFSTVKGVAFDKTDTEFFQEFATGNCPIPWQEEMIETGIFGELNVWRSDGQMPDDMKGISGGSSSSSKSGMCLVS", "chain of UniProt O43318 (whole entry, looked up)": "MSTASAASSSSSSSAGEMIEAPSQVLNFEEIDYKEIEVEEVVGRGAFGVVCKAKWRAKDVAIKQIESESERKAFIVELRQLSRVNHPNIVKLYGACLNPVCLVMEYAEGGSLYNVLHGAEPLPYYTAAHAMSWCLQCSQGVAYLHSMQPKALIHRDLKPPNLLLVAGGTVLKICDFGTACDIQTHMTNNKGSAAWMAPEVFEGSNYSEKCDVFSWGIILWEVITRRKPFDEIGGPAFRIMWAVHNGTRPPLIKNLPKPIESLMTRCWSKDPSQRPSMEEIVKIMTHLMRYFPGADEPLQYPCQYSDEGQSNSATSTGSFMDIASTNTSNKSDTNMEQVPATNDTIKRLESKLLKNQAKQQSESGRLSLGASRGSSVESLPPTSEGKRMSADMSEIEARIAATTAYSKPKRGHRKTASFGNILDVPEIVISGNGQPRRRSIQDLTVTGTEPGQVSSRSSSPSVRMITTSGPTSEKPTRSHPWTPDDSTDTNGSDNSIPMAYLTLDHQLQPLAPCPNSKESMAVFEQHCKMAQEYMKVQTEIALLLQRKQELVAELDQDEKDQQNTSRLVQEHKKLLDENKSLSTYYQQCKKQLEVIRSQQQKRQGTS", "chain of UniProt P08069 (whole entry, looked up)": "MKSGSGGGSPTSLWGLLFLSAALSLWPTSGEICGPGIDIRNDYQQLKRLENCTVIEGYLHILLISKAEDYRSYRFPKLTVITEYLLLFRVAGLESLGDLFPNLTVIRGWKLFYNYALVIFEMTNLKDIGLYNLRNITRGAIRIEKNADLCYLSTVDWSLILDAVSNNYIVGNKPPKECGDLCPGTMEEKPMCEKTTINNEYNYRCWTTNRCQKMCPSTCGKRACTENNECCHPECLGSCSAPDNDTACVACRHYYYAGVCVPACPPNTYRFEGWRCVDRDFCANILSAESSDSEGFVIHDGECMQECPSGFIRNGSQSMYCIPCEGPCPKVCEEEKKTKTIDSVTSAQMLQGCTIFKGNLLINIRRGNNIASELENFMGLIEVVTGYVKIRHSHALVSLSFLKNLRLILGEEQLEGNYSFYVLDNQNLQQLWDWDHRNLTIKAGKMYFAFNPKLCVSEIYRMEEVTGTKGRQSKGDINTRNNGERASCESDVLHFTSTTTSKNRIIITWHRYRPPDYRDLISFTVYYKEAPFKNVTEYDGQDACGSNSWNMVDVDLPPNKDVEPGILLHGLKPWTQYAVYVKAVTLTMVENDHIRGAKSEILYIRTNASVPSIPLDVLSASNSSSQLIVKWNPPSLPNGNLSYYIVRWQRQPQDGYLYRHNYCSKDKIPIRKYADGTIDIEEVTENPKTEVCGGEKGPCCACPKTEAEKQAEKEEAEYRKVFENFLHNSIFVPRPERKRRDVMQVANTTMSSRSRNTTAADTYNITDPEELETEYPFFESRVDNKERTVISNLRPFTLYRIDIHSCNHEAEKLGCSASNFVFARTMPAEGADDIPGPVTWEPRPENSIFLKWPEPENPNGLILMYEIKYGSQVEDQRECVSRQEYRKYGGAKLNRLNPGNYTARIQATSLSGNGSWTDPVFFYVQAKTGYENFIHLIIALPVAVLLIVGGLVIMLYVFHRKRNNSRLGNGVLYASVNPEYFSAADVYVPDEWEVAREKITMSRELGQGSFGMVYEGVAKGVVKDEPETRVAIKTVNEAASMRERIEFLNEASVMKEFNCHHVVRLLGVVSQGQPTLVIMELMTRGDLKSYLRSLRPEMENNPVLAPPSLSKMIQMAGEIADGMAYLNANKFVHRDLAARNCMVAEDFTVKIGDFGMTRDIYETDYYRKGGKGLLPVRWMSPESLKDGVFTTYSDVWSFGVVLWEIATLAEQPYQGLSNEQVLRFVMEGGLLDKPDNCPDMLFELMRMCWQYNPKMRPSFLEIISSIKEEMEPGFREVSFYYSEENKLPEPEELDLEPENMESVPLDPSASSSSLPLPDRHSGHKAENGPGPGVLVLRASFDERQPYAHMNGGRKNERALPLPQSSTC", "chain of UniProt Q8WU08 (whole entry, looked up)": "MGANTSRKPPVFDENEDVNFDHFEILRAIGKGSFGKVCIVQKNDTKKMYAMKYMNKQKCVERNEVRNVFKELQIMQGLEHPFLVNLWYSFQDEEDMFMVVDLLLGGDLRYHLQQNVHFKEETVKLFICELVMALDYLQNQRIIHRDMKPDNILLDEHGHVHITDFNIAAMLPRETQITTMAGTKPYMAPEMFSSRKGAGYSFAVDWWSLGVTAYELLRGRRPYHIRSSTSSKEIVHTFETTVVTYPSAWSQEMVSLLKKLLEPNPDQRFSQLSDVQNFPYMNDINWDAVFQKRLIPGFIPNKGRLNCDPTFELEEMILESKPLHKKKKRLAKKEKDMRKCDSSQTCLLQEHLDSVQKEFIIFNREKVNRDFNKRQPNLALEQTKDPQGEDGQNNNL", "chain of UniProt P45985 (whole entry, looked up)": "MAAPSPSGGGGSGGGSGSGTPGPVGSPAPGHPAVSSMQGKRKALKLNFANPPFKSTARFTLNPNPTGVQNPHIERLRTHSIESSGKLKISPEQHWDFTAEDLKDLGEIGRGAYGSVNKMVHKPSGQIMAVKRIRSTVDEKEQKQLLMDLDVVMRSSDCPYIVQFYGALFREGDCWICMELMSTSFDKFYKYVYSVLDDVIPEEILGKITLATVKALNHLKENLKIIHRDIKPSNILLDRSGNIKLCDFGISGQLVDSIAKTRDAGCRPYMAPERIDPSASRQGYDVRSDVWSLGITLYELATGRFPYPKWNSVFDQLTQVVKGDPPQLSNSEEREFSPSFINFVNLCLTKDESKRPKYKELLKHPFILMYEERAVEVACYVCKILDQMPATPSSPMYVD"}
{"data": "Study 1", "target": "Beta-1 adrenergic receptor (ADRB1, Homo sapiens, UniProt P08588)", "action": "agonist", "chain of UniProt P08588 (whole entry, looked up)": "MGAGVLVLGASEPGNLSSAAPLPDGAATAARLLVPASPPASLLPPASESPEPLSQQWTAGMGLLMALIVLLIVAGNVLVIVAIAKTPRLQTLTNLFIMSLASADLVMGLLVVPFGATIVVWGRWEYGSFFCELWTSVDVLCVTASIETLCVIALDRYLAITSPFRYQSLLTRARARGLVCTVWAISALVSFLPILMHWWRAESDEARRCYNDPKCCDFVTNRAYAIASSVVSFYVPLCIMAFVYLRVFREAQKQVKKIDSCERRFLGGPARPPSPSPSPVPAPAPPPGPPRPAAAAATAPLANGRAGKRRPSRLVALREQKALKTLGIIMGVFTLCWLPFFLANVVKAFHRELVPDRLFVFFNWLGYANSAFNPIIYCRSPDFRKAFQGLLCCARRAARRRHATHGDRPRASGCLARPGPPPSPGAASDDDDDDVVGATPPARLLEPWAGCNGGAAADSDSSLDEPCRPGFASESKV"}
{"Compound": "CC(C)(C)NCC(O)COc1ccccc1OCC1CCCO1 (stereo not shown)", "Emax [%]": 98.7}
{"Compound": "Oc1cc2c(c(Cl)c1O)CCNC[C@@H]2c1ccccc1", "Emax [%]": 110}
{"Compound": "Nc1nc(CC(=O)Nc2ccc(CCNC[C@H](O)c3ccccc3)cc2)cs1", "Emax [%]": 97.7}
{"Compound": "CC(C)(CO)NCC(O)c1ccccc1 (stereo not shown)", "Emax [%]": 90.7}
{"Compound": "Cc1cccc(CNCc2ccccc2OCC(O)CN2CCSCC2)c1 (stereo not shown)", "Emax [%]": 38}
{"Compound": "O=C(O)Cc1ccc(OCCNC[C@H](O)c2ccccc2)cc1", "Emax [%]": 89.7}
{"Compound": "Cc1cc(O)c(C(C)(C)C)cc1Sc1cc(C(C)(C)C)c(O)cc1C", "Emax [%]": 63.2}
{"Compound": "CCCCCCCCNCC(O)COc1ccc(SC(C)C)cc1 (stereo not shown)", "Emax [%]": 44}
{"data": "Study 2", "target": "Serine/threonine-protein kinase 4 (STK4, Homo sapiens, UniProt Q13043)", "effect on": "enzyme activity", "action": "inhibitor", "concentration": "0.5 µM", "relative to": "control", "Construct (Q13043 1-487)": "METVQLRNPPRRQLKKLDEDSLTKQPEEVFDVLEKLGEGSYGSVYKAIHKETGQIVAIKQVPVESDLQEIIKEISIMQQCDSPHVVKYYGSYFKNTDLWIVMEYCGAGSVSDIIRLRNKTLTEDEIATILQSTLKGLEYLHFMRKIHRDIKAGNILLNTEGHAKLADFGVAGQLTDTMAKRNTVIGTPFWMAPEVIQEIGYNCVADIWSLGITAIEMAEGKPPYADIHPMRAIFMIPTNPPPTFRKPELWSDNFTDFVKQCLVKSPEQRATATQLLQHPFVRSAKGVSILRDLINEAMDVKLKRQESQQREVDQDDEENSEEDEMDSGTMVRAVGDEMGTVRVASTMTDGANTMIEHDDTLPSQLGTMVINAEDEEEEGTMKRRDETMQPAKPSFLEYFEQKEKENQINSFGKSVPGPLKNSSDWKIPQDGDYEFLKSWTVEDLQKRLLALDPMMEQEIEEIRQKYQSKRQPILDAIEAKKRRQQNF"}
{"Structure (SMILES)": "CN(C)S(=O)(=O)c1ccc2c(c1)/C(=C/c1cc3c([nH]1)CCCC3)C(=O)N2", "remaining activity [%]": 13.1}
{"Structure (SMILES)": "O=C1Cc2c([nH]c3ccc(Br)cc23)-c2ccccc2N1", "remaining activity [%]": 81.8}
{"Structure (SMILES)": "O=C(c1cc2cc(O)ccc2[nH]1)c1cc2cc(O)ccc2[nH]1", "remaining activity [%]": 33.7}
{"Structure (SMILES)": "O=Nc1c(-c2c(O)[nH]c3cc(Br)ccc23)[nH]c2ccccc12", "remaining activity [%]": 22.5}
{"Structure (SMILES)": "c1ccc2c(-c3ccncc3)c[nH]c2c1", "remaining activity [%]": 103}
{"Structure (SMILES)": "Oc1cccc(-c2nc(N3CCOCC3)c3oc4ncccc4c3n2)c1", "remaining activity [%]": 93.3}
{"Structure (SMILES)": "O=C1NC(=O)c2c1c1c3ccccc3[nH]c1c1[nH]c3cc(Br)ccc3c21", "remaining activity [%]": 52}
{"Structure (SMILES)": "O=C1Nc2ccc(Br)cc2/C1=C/c1cc2c([nH]1)CCCC2", "remaining activity [%]": 44.1}
{"Structure (SMILES)": "O=C1NC(=O)c2c1c1c3ccccc3[nH]c1n1cncc21", "remaining activity [%]": 42.7}
{"Structure (SMILES)": "CCCCc1c(-c2ccc(OC)cc2)[nH]c2nccnc12", "remaining activity [%]": 82.2}
{"Structure (SMILES)": "Cc1ccc(S(=O)(=O)/C=C/C#N)cc1", "remaining activity [%]": 94.7}
{"Structure (SMILES)": "O=c1cc(N2CCOCC2)oc2c(-c3ccccc3)cccc12", "remaining activity [%]": 87.8}
{"Structure (SMILES)": "COc1ccc(COc2ccc(Cc3cnc(N)nc3N)cc2OC)cc1", "remaining activity [%]": 106}
{"Structure (SMILES)": "CCCNC(=O)Nc1ccc(Oc2ncnc3cc(OC)c(OC)cc23)cc1Cl", "remaining activity [%]": 92.8}
{"Structure (SMILES)": "c1ccc(-c2n[nH]c3c2oc2ccccc23)cc1", "remaining activity [%]": 99.8}
{"Structure (SMILES)": "COc1cccc(-c2cc(=O)c3ccccc3o2)c1N", "remaining activity [%]": 92.1}
{"Structure (SMILES)": "CN1CCN(c2ccc3nc(-c4c(N)c5c(F)cccc5[nH]c4=O)[nH]c3c2)CC1", "remaining activity [%]": 10}
{"Structure (SMILES)": "N#Cc1cnc2cnc(NCc3cccnc3)cc2c1Nc1ccc(F)c(Cl)c1", "remaining activity [%]": 100}
{"Structure (SMILES)": "COc1ccc2c(c1)c(C1=C(c3c[nH]c4ccccc34)C(=O)NC1=O)cn2CCCN(C)C", "remaining activity [%]": 65.2}
{"Structure (SMILES)": "O=C1Nc2ccccc2/C1=C\\c1c(Cl)[nH]c2ccccc12", "remaining activity [%]": 91}
{"data": "Study 3", "SMILES": "C[C@H](c1cccc(C#N)c1)n1cc(Cl)cc(C(N)=O)c1=N", "concentration": "1 µM"}
{"target": "FES (Homo sapiens, UniProt P07332)", "effect on": "cell-free assay", "technique": "competition with immobilised ligand", "remaining binding": "53%"}
{"target": "CSNK1D (Homo sapiens, UniProt P48730)", "effect on": "cell-free assay", "technique": "competition with immobilised ligand", "remaining binding": "100%"}
{"target": "Tyrosine-protein kinase ABL1, phosphorylated (ABL1, Homo sapiens, UniProt P00519, F317I)", "effect on": "binding", "remaining binding": "89%"}
{"target": "PIK3CA (Homo sapiens, UniProt P42336, E542K)", "effect on": "cell-free assay", "technique": "competition with immobilised ligand", "remaining binding": "77%"}
{"target": "IGF1R (Homo sapiens, UniProt P08069)", "effect on": "cell-free assay", "technique": "competition with immobilised ligand", "remaining binding": "100%"}
{"target": "MARK1 (Homo sapiens, UniProt Q9P0L2)", "effect on": "cell-free assay", "technique": "competition with immobilised ligand", "remaining binding": "97%"}
{"target": "GRK1 (Homo sapiens, UniProt Q15835)", "effect on": "cell-free assay", "technique": "competition with immobilised ligand", "remaining binding": "74%"}
{"target": "Tyrosine-protein kinase ABL1, phosphorylated (ABL1, Homo sapiens, UniProt P00519, T315I)", "effect on": "cell-free assay", "technique": "competition with immobilised ligand", "remaining binding": "96%"}
{"target": "MAP3K5 (Homo sapiens, UniProt Q99683)", "effect on": "cell-free assay", "technique": "competition with immobilised ligand", "remaining binding": "85%"}
{"target": "PAK1 (Homo sapiens, UniProt Q13153)", "effect on": "cell-free assay", "technique": "competition with immobilised ligand", "remaining binding": "100%"}
{"target": "TLK2 (Homo sapiens, UniProt Q86UE8)", "effect on": "cell-free assay", "technique": "competition with immobilised ligand", "remaining binding": "100%"}
{"target": "SIK3 (Homo sapiens, UniProt Q9Y2K2)", "effect on": "cell-free assay", "technique": "competition with immobilised ligand", "remaining binding": "100%"}
{"target": "MAP3K7 (Homo sapiens, UniProt O43318)", "effect on": "cell-free assay", "technique": "competition with immobilised ligand", "remaining binding": "77%"}
{"target": "MAP2K3 (Homo sapiens, UniProt P46734)", "effect on": "cell-free assay", "technique": "competition with immobilised ligand", "remaining binding": "73%"}
{"target": "YES1 (Homo sapiens, UniProt P07947)", "effect on": "cell-free assay", "technique": "competition with immobilised ligand", "remaining binding": "88%"}
{"target": "MAP2K4 (Homo sapiens, UniProt P45985)", "effect on": "cell-free assay", "technique": "competition with immobilised ligand", "remaining binding": "100%"}
{"target": "FLT4 (Homo sapiens, UniProt P35916)", "effect on": "cell-free assay", "technique": "competition with immobilised ligand", "remaining binding": "80%"}
{"target": "STK32A (Homo sapiens, UniProt Q8WU08)", "effect on": "cell-free assay", "technique": "competition with immobilised ligand", "remaining binding": "100%"}
{"data": "Study 4", "species": "mouse", "matrix": "microsomes or S9", "concentration": "2 µM", "time": "0.5 h"}
{"SMILES": "Cc1ccc(C2Nc3ccc4ccccc4c3C3=C2CC(C)(C)CC3=O)o1 (stereo not shown)", "remaining compound [%]": 4.19}
{"SMILES": "COc1cccc2c1OC1(CCN(Cc3ccccc3)CC1)N1N=C(c3ccc(C)o3)CC21 (stereo not shown)", "remaining compound [%]": 0.897}
{"SMILES": "Cc1c(CNCC(c2cccs2)N(C)C)cc(C#N)n1C (stereo not shown)", "remaining compound [%]": 0.0803}
{"SMILES": "Cc1ccc(-c2noc3c(N(C)Cc4ccccc4)ncnc23)cc1", "remaining compound [%]": 3.6}
{"SMILES": "COc1ccc(C2C(C(=O)N3CCN(c4cc(Cl)ccc4C)CC3)CCC(=O)N2c2cc(OC)c(OC)c(OC)c2)cc1 (stereo not shown)", "remaining compound [%]": 12}
{"SMILES": "CCOc1ccc(OCC)c(NC(=O)c2cc(S(=O)(=O)N3CCCCC3)c[nH]2)c1", "remaining compound [%]": 1.97}
{"SMILES": "COc1c(-c2coc3cc4c(cc3c2=O)CC(OC(C)=O)C(C)(C)O4)ccc2c1C=CC(C)(C)O2 (stereo not shown)", "remaining compound [%]": 0.619}
{"SMILES": "Cc1c(C(=O)Nc2ccc3c(c2)NC(=O)C(C)O3)oc2ccc(F)cc12 (stereo not shown)", "remaining compound [%]": "< 1"}
{"SMILES": "O=S1(=O)N=C(N2CCOCC2)c2ccccc21", "remaining compound [%]": 83.8}
{"SMILES": "COc1cc(=O)n(C)cc1C(=O)N1CCc2ccccc21", "remaining compound [%]": 72.3}
{"SMILES": "Cc1cc(NCCCc2nc(C(C)C)no2)nc(-c2ccc(S(C)(=O)=O)cc2)n1", "remaining compound [%]": "< 1"}
{"SMILES": "Cc1ccc(Nc2cc(C)n3c(=O)[nH]nc3n2)cc1F", "remaining compound [%]": 45}
{"SMILES": "CC(C)c1nc(OCCCN(C)C)c(C#N)c2c1CCCC2", "remaining compound [%]": 2.46}
{"SMILES": "Cc1cc(C(=O)NC2CCCC2)ccc1NC(=O)N1CCn2ncnc2C1", "remaining compound [%]": 97.1}
{"SMILES": "CCc1cnc(NCCCn2ccnc2CC)nc1", "remaining compound [%]": 41.3}
{"note": "Repeated from above (study 2):"}
{"Structure (SMILES)": "O=C1NC(=O)c2c1c1c3ccccc3[nH]c1c1[nH]c3cc(Br)ccc3c21", "remaining activity [%]": 52}
{"Structure (SMILES)": "O=C1Nc2ccc(Br)cc2/C1=C/c1cc2c([nH]1)CCCC2", "remaining activity [%]": 44.1}
{"Structure (SMILES)": "O=C1NC(=O)c2c1c1c3ccccc3[nH]c1n1cncc21", "remaining activity [%]": 42.7}
{"Structure (SMILES)": "CCCCc1c(-c2ccc(OC)cc2)[nH]c2nccnc12", "remaining activity [%]": 82.2}
{"Structure (SMILES)": "Cc1ccc(S(=O)(=O)/C=C/C#N)cc1", "remaining activity [%]": 94.7}
{"Structure (SMILES)": "O=c1cc(N2CCOCC2)oc2c(-c3ccccc3)cccc12", "remaining activity [%]": 87.8}
